Assay results from different studies.
Each line is one published result; not all experiments were run side by side. “And” joins repeats or separate records; there may be more than shown. Numbers after ± are the reported error.
rep main protease: Replicase polyprotein 1ab, main protease (rep, Severe acute respiratory syndrome coronavirus 2, UniProt P0DTD1)
rep papain-like protease: Replicase polyprotein 1ab, papain-like protease (rep, Severe acute respiratory syndrome coronavirus 2, UniProt P0DTD1)

CCOC(=O)[C@@H](NC(=O)c1ccccc1[Se][Se]c1ccccc1C(=O)N[C@H](C(=O)OCC)C(C)C)C(C)C — inhibition (rep main protease; enzyme activity, inhibitor; 40 µM, mean of repeats): 87.6%
CCc1n[nH]c(NC(=O)c2ccc3c(c2)nnn3C)n1 — Hill slope (rep main protease; protease activity, SAMDI-MS): 1.48
O=C(O)CNC(=O)c1ccccc1[Se][Se]c1ccccc1C(=O)NCC(=O)O — inhibition (rep main protease; enzyme activity, inhibitor; 40 µM): 98.8% and 103%
COc1cc(OC)cc(C(=O)N(CCC(=O)N2CCNCC2)Cc2cccc(Cl)c2)c1 — ΔTm (Replicase polyprotein 1ab, nsp3 macrodomain (rep, Severe acute respiratory syndrome coronavirus 2, UniProt P0DTD1); thermal stabilisation, differential scanning fluorimetry; 300 µM, SARS-CoV-2): 1.67 ± 0.21 °C
C[C@](C(=O)NC1CCOCC1)(c1cncnc1)N(C(=O)[C@H](F)Cl)c1ccc(OC(F)(F)Cl)cc1 — inhibition (rep main protease; enzyme activity, inhibitor; 4.6 nM): 17.6%
NC(Cc1cc(O)c(O)cc1O)C(=O)O (racemic) — Hill slope (Replicase polyprotein 1ab, nsp14 N7-methyltransferase (rep, Severe acute respiratory syndrome coronavirus 2, UniProt P0DTD1); N7-methyltransferase activity, inhibitor, Py-FLINT): 0.74 ± 0.1
CCOc1ccc(CN2CC[C@H]2C(=O)NC)cc1-c1cccc(C(=O)NC[C@@H]2COC(C)(C)O2)c1 — remaining activity (rep main protease; 3CL protease activity; 1 µM): 106%
O=c1oc2cc(O)ccc2c2ccc(O)cc12 — binding efficiency index (rep main protease): 19.1
O=C(NCCc1cccc(F)c1)[C@@H](c1cncnc1)N(C(=O)[C@@H](F)Cl)c1ccc(S(F)(F)(F)(F)F)cc1 — kinact/KI (rep main protease; enzyme activity, inhibitor): 20 M⁻¹ s⁻¹
Cc1ccc(OCCN(C)C)cc1C(=O)N[C@H](C)c1cc(-c2cncs2)nc2ccccc12 — GFP/mCherry signal ratio (rep papain-like protease; reporter gene, cell-based): 33.6 and 119 and 0 and 87.2 and 72.4 and 2.85
CCCCCCCCCCCCCCCC(=O)N[C@@H](CCC(=O)NCCOCCOCCC(=O)NCCOCCOCCC(=O)NCCCC[C@H](NC(=O)[C@H](CC(=O)O)NC(=O)[C@H](CC(C)C)NC(=O)[C@H](Cc1ccc(O)cc1)NC(=O)[C@H](CCCCN)NC(=O)[C@H](CO)NC(=O)[C@H](Cc1ccc(O)cc1)NC(=O)[C@H](CC(=O)O)NC(=O)[C@H](CO)NC(=O)[C@@H](NC(=O)[C@H](Cc1ccccc1)NC(=O)[C@@H](NC(=O)CNC(=O)[C@H](CCC(N)=O)NC(=O)[C@@H](CO)NC(=O)[C@@H](N)Cc1c[nH]cn1)[C@@H](C)O)[C@@H](C)O)C(=O)N[C@@H](CCCNC(=N)N)C(=O)N[C@@H](CCCNC(=N)N)C(=O)N[C@@H](C)C(=O)N[C@@H](CCC(N)=O)C(=O)N[C@@H](CC(=O)O)C(=O)N[C@@H](Cc1ccccc1)C(=O)N[C@H](C(=O)N[C@@H](CCC(N)=O)C(=O)N[C@@H](Cc1c[nH]c2ccccc12)C(=O)N[C@@H](CC(C)C)C(=O)N[C@@H](CC(C)C)C(=O)N[C@@H](CC(N)=O)C(=O)N[C@H](C(=O)NCC(=O)NCC(=O)N1CCC[C@H]1C(=O)N[C@@H](CO)C(=O)N[C@@H](CO)C(=O)NCC(=O)N[C@@H](C)C(=O)N1CCC[C@H]1C(=O)N1CCC[C@H]1C(=O)N1CCC[C@H]1C(=O)N[C@@H](CO)C(N)=O)[C@@H](C)O)C(C)C)C(=O)O — AUC(0-t) (rhesus monkey, plasma; subcutaneous, 5 µg/kg, single dose): 9.19 ng·h/mL
CNC(=O)CC[C@H](Cc1ccccc1)NC(=O)[C@@H](Cc1ccc(Cl)cc1Cl)NC(=O)[C@H](N)Cc1ccccc1[N+](=O)[O-] — remaining activity (rep main protease; 0.5229 µM): 101%
O=C(Oc1cncc(Cl)c1)c1ccco1 — Hill slope (rep main protease; enzyme activity, inhibitor): 0.99 ± 0.07
CC(C)(C)OC(=O)N[C@H]1CCCCC/C=C\[C@@H]2C[C@@]2(C(=O)NS(=O)(=O)C2CC2)NC(=O)[C@@H]2C[C@@H](OC(=O)N3Cc4cccc(F)c4C3)CN2C1=O — remaining activity (rep papain-like protease; protease activity, inhibitor, fluorescence; 20 µM, 25 °C): no inhibition
CC(=O)Nc1ccc(-c2cnc(N3C(=O)CSC3c3cc4ccccc4nc3Cl)s2)cc1 (stereo not drawn) — ΔTm (rep papain-like protease; thermal stability, DSF): 8 °C

Some of these lines once more:
COc1cc(OC)cc(C(=O)N(CCC(=O)N2CCNCC2)Cc2cccc(Cl)c2)c1 — ΔTm (Replicase polyprotein 1ab, nsp3 macrodomain (rep, Severe acute respiratory syndrome coronavirus 2, UniProt P0DTD1); thermal stabilisation, differential scanning fluorimetry; 300 µM, SARS-CoV-2): 1.67 ± 0.21 °C
C[C@](C(=O)NC1CCOCC1)(c1cncnc1)N(C(=O)[C@H](F)Cl)c1ccc(OC(F)(F)Cl)cc1 — inhibition (rep main protease; enzyme activity, inhibitor; 4.6 nM): 17.6%
